Measured values pooled from the literature.
Numbered parts are unrelated; each lists some results of a single study.
Chain of UniProt P08588 (whole entry, looked up): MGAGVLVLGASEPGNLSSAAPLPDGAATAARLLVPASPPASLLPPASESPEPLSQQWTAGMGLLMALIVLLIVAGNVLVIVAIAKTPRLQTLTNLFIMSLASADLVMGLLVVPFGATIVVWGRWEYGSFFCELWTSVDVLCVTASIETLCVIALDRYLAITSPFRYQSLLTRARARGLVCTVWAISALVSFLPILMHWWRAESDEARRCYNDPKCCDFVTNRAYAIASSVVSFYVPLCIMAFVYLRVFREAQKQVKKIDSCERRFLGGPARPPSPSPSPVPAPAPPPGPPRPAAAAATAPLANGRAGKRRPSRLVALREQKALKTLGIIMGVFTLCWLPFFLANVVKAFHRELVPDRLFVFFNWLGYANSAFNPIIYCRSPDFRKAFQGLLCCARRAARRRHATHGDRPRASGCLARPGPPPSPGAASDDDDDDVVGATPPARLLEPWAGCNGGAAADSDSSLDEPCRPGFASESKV

Block 1
Sequence: DTFDEAFLAAVRSHQG
Form: peptide
Setting: peptide tiling library
Direction: direction not given
Endpoint: enrichment score
Cln2 (Saccharomyces cerevisiae); peptide binding, competitive growth sequencing; Saccharomyces cerevisiae, unfused Cln2 strain: 1.08
Saccharomyces cerevisiae; binding, competitive growth deep sequencing; cyclin E1-Cln2 fusion strain: 2.24
Saccharomyces cerevisiae; pheromone growth arrest, yeast competitive growth sequencing; no Cln2 overexpression: 0.262
Saccharomyces cerevisiae; cell growth, competitive growth deep sequencing; with: cyclin E2-Cln2 fusion: 1.02

Further values, each from its own experiment
HLA class I histocompatibility antigen, B alpha chain allele B*39:01: HLA class I histocompatibility antigen, B alpha chain, allele B*39:01 (Homo sapiens, UniProt P01889)
LNTVATLY  binding (HLA class I histocompatibility antigen, B alpha chain allele B*39:01; peptide-MHC binding; peptide; concentration not given): inactive
CN[C@@H]1C[C@H]2O[C@@](C)([C@@H]1OC)n1c3ccccc3c3c4c(c5c6ccccc6n2c5c31)C(=O)NC4  viability (normal-adjacent epithelium patient-derived organoids sample G; CellTiter-Glo; 1 µM; baseline: DMSO): 1%
HHIWQNLL  binding (HLA class I histocompatibility antigen, B alpha chain allele B*39:01; peptide-MHC binding; peptide; concentration not given): inactive
Nc1ncnc2c1ncn2[C@@H]1O[C@@H]2COP(O)(=S)O[C@H]2[C@H]1O (some centres unmarked)  Emax (ADRB1 (Homo sapiens, UniProt P08588); agonist): 103%

For quick reference, copied from above (further values, each from its own experiment):
CN[C@@H]1C[C@H]2O[C@@](C)([C@@H]1OC)n1c3ccccc3c3c4c(c5c6ccccc6n2c5c31)C(=O)NC4  viability (normal-adjacent epithelium patient-derived organoids sample G; CellTiter-Glo; 1 µM; baseline: DMSO): 1%
